Measured values pooled from the literature.
A part holds a random share of what one study measured.

Sample 1
Target: Histone acetyltransferase KAT6A, winged helix 2, GST fusion (KAT6A, Homo sapiens, UniProt Q92794, residues 85-181)
Technique: protein binding microarray
Molecule type: double-stranded DNA, one strand shown
Sample: in vitro
Concentration: not given
Notes: 8-mer, flanks averaged, mean of 2 arrays, mostly near background
Reference: not given
Direction: higher = stronger binding
Residues (chain): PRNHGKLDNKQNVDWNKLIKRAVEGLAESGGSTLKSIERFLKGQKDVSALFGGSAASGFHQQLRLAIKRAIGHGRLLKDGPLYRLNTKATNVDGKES
Sequence	E-score
CCACTTGA	0.0169
CCCTTCCA	0.0813
ATCCGCCA	0.0701
CAGTGAAC	-0.00361
AACAGATC	0.049
ACTGTCTA	-0.128
AAGAAGTC	-0.0252
ACTCGGAT	0.0568

Sample 2
Target: Phosphate system positive regulatory protein PHO4, full length, GST-tagged (PHO4, Saccharomyces cerevisiae, UniProt P07270, residues 1-312)
Technique: competition protein-binding microarray
Molecule type: double-stranded DNA, one strand shown
Sample: in vitro
Concentration: 2 µM
Notes: whole 60-bp probe, lowest competitor level
With: Cbf1 competitor, 0.05 µM
Direction: higher = stronger binding
Constant ends, left off below: … GTCTTGATTCGCTTGACGCTGCTG
Construct (chain): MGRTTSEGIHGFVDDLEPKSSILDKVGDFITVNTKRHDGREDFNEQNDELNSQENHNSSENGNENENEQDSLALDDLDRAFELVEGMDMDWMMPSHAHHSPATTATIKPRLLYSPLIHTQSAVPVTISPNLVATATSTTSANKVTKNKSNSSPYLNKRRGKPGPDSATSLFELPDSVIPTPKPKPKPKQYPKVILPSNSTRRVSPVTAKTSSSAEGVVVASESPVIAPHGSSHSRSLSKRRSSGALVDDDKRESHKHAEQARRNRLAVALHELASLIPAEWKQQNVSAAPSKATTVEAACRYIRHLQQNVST
Sequence	fluorescence intensity [a.u.]
TGCGCAACAACTTGCCCAGTGGGTGTATGTCTAGAA	4330
CTTTCCCGATCTTGTCACTTGACTTTAGCACATTTG	3760
CAGTCCGCCTCCCGTCACGTGATGGAGTAAGAAATT	12200
GGTAAGAAGGTCGCTAGCATGACGCCAGCTCCAAAA	4810
CATACCCAACCTTGACGTGTGGGTGAAGATATTTGT	6370
TGCAAGTTAAAGCGGTCCGTGCCAGATTGGACGAGT	7430
GTCTTGTCTCATTTTCACGTGCCATTCCCCACTTCA	15900
AAATTACTAAGTTGCACAGTGGGTGACGCCGTATGA	4430
CTAACGAAGGTTTGTGAGGTGGGTGACAAGCCAAGT	3570
CCACCATCGTTACCAAATGTGACGGCTGCACCTAAA	4570
GTCTTGTCTCATTGACGCGTGGGTGTCCCCACTTCA	10300

Sample 3
Target: Interferon regulatory factor 5, full length, phosphomimetic (IRF5, Homo sapiens, UniProt Q13568-2, residues 1-514, K96S/S451D/S453D/S456D/S462D)
Technique: protein-binding microarray
Molecule type: double-stranded DNA, one strand shown
Sample: in vitro
Concentration: 250 nM
Notes: 60-bp whole probe
With: salmon DNA 0.4 mg/ml
Reference: random background probes
Direction: higher = stronger binding
Constant ends, left off below: GCCTAGCAC … GTCTTGATTCGCTTGACGCTGCTG
Sequence	log fluorescence [z-score]
TCTTTTTGCACTCTCTACATGTGCTAG	0.967
TCCAGGGCGGTGGGTGGCCCGTGCTAG	-0.955
GACGGTTGCGGTTTCGGGACGTGCTAG	3.18
CCAGATTTCCCCACCATCTAGTGCTAG	0.0229
TCATTTCCCAAGTTTATAACTGTGCTA	0.58
TCAAATCTCTTTCCTTAACTGTGCTAG	1.09
GATGGACTGGACTATCGGGACGTGCTA	0.819

Further values, each from its own experiment
Substance	target	assay	test system	setting	how to read	endpoint	result
PhoQ, residues 284 288 289 292 302 303 TLMATV	PhoP, residues 12 14 15 18 19 MHTVL (Escherichia coli, UniProt P23836)	Sort-seq, item: YFP reporter	E. coli	PhoQ-PhoP variant library, with: 10 µM Mg2+	reference: high Mg2+ state, higher = stronger signaling	fold induction	1.46

Repeated from above (sample 3):
Sequence	log fluorescence [z-score]
GACGGTTGCGGTTTCGGGACGTGCTAG	3.18
TCTTTTTGCACTCTCTACATGTGCTAG	0.967
